Assay results from different studies.
Protocols differ between the studies behind these lines. Numbers after ± are the reported error.
Target: Carbonic anhydrase 9 (CA9, Homo sapiens, UniProt Q16790)

Compound	assay	setting	measurement	value
C[C@@]1(C(=O)O)[C@@H](O)CC[C@]2(C)c3cc4c(cc3CC[C@@H]12)[nH]c1ccc(S(=O)(=O)n2c3ccccc3c3cc5c(cc32)CC[C@H]2[C@](C)(C(=O)O)[C@@H](O)CC[C@]52C)cc14	enzyme activity, inhibitor, absorbance	pH 7.5	IC50	114 nM
NS(=O)(=O)c1ccc(C(=O)N2CCN(c3cccc4[nH]ccc34)CC2)cc1Br	enzyme activity, inhibitor		IC50	28.2 nM
Cc1c(Cl)c(=O)oc2cc(OCCCCCCSC#N)ccc12	enzyme activity, inhibitor, stopped-flow		Ki	65.4 nM
NS(=O)(=O)c1ccc(NC(=O)CN2CCCC(NC(=O)c3cc4ccccc4o3)C2)cc1 (stereo not shown)	enzyme activity, inhibitor		IC50	25.7 nM
N#CSCCCCCCOc1ccc2c(-c3ccccc3)cc(=O)oc2c1	enzyme activity, inhibitor, stopped-flow		Ki	157 nM
COC(=O)CCCNC(=O)c1cc(S(N)(=O)=O)c(Cl)cc1NC1CCCCC1		pH 7	Kd	18 nM
Cc1nn(-c2ccc(S(N)(=O)=O)cc2)c(C)c1CCC(=O)Nc1cccc(-c2cn(C)nn2)c1	inhibitor		IC50	27 ± 4 nM
CCCCC1CCC(=O)O1 (stereo not shown)	enzyme activity, inhibitor, stopped-flow		Ki	6700 nM
CC[C@H](C)[C@H](N)C(=O)NS(=O)(=O)CC(=O)N[C@@]1(C(=O)O)[C@@H](OC(=O)[C@@H](N)[C@@H](C)c2ccccc2)C[C@H]2C(C(N)=O)=CN(C)C[C@H]21		pH 7.5	Ki	99 nM
O=C1CCc2c(ccc3ccccc23)O1	enzyme activity, inhibitor, stopped-flow		Ki	3000 nM
NS(=O)(=O)c1ccc(NC(=O)Cc2csc(NC(=O)Nc3ccc(Cl)cc3)n2)cc1	enzyme activity, inhibitor		IC50	17 nM
CC[C@H](C)[C@H](N)C(=O)NS(=O)(=O)CC(=O)N[C@]1(C(=O)O)[C@@H]2CN(C)C=C(C(N)=O)[C@@H]2C[C@@H]1O	enzyme activity, inhibitor, absorbance	pH 7.5	IC50	73 nM
O=C1CCCCO1	enzyme activity, inhibitor, stopped-flow		Ki	5300 nM

Some of these lines once more:
Compound	assay	setting	measurement	value
Cc1nn(-c2ccc(S(N)(=O)=O)cc2)c(C)c1CCC(=O)Nc1cccc(-c2cn(C)nn2)c1	inhibitor		IC50	27 ± 4 nM
